# Published values gathered from unrelated publications.
# Parts stem from different laboratories: compare values within a part only. Changes are numbered by the printed parent chain.

# Series 1 — method: aptamer microarray, sandwich; molecule type: DNA with 2'F-ANA; medium: in vitro; tested at: 200 nM; with: Cy3 exosite-II aptamer, 400 nM; reading: higher = stronger binding
# Target: Prothrombin, mature alpha-thrombin (F2, Homo sapiens, UniProt P00734)
# Notes: whole 15-mer aptamer, many near background
Oligonucleotide,mean fluorescence intensity [a.u.]
GGTTGGTGTGGTTGG (2'F-ANA at 3 4 5 6 7 8 10 11 12 13),50.3
GGTTGGTGTGGTTGG (2'F-ANA at 2 4 5 6 7 10 11 12 13 14),50.5
GGTTGGTGTGGTTGG (2'F-ANA at 2 4 6 8 10 12 15),116
GGTTGGTGTGGTTGG (2'F-ANA at 3 4 6 9 10 11 12 13),231

# Series 2 — method: protein binding microarray; molecule type: double-stranded DNA, one strand shown; medium: in vitro; tested at: not given; relative to: not given; reading: higher = stronger binding
# Target: Histone acetyltransferase KAT6A, winged helix 2, GST fusion (KAT6A, Homo sapiens, UniProt Q92794, residues 85-181)
# Notes: 8-mer, flanks averaged, mean of 2 arrays, mostly near background
# Construct (chain): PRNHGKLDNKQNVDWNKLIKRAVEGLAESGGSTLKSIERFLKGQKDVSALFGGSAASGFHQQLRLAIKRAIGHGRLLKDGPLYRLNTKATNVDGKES
Oligonucleotide,E-score
CGTCAGCC,0.0375
CTTGGGCA,0.0672
AAGACTGC,-0.18
AATGGTTC,0.0434
CGCGTGTA,0.0776

# Series 3 — target: CCNB2, cyclin fold, Cln2 fusion (human); method: yeast growth competition, sequencing; medium: yeast; notes: weak parent motif; relative to: not given; reading: higher = stronger binding
# Parent: MASTL docking peptide (human); PMIAKNLMCELDE; partner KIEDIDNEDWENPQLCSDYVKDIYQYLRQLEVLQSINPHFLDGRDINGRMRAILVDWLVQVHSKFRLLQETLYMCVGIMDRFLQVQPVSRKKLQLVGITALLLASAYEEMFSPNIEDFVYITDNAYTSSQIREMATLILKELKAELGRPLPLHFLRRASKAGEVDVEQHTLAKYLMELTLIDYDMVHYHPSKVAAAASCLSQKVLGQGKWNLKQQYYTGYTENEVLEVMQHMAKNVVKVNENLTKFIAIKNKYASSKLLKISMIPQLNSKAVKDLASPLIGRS
Variant,normalised enrichment score
D12N,0.533
L11P,-0.308
E10D,0.117

# Mixed results
Molecule,target,test,system,conditions,scale,measurement,value
"PhoQ, residues 284 288 289 292 302 303 SQSLSM","PhoP, residues 12 14 15 18 19 AGCRL (Escherichia coli, UniProt P23836)","Sort-seq, measured: YFP reporter",E. coli,"PhoQ-PhoP variant library, with: 10 µM Mg2+","relative to: high Mg2+ state, higher = stronger signaling",fold induction,14.2

# A few entries again (series 3):
Variant,normalised enrichment score
D12N,0.533
L11P,-0.308
